Measured values from different studies.
Each line is one published result; not all experiments were run side by side. Several values in a cell are separate wells, animals, samples, runs or records. ± gives the spread as reported.
Genome polyprotein NS2B-NS3 protease: Genome polyprotein, NS2B-NS3 protease (dengue virus type 2, UniProt P29990)

SMILES | tested on | assay | system | conditions | how to read | quantity | result
Cc1ncsc1-c1ccc(C(C)NC(=O)C2CC(O)CN2C(=O)C(NC(=O)CCCCCCCCCCN2CCCC(Nc3ncc(Cl)c(Nc4ccccc4S(=O)(=O)C(C)C)n3)C2)C(C)(C)C)cc1 (stereo not shown) | 22Rv1 | RNA-seq, item: THNSL1 mRNA | – | concentration not given | relative to: DMSO | log2 fold change | -1.06
CNS(=O)(=O)Nc1nccc(Cc2c(C)c3ccc(Oc4ncccc4F)cc3oc2=O)c1F | NOMO-1 | cell viability | – | 7 days | – | IC50 | > 1 µM
CC(C)c1ccc(N(C)c2ccc3c(c2)OCC[C@H]3CNc2cnccc2C(=O)O)cc1 | SUP-T1 | cell viability, CellTiter-Glo | – | 7 days | – | IC50 | 3.33 µM
O=C(C[Se]C(=O)c1ccc2ccccc2c1)Nc1cccc(C(F)(F)F)c1 | NCI60 breast subpanel | NCI60 five-dose screen | – | – | – | GI50 | 2.03 µM
CC(C)(C)c1cc(-c2ccc3cccnc3n2)nc(-c2ccc3cccnc3n2)c1.[Cl-].[Cl-].[Ru+2].c1ccc2cc3nc4c5cccnc5c5ncccc5c4nc3cc2c1 | B16-F10 | cytotoxicity, resazurin | – | dark | – | EC50 | 20.8 µM
[BH3-][P+]1(c2ccccc2)CCCCC1 | SW-620 | MTT | – | 72 h | relative to: IC50 HaCaT over IC50 SW-620 | selectivity index | 13.1
COC1CN([C@H]2CC[C@H]([C@@]3(C)Oc4c(Cl)cc(C(=O)NCc5c(SC)cc(C)[nH]c5=O)c(C)c4O3)CC2)C1 | RT-4 | cell growth or viability, ATP luminescence | – | 12 days | – | GI50 | > 10 µM
C=CC(=O)N1CCCC(n2c(=O)c3ncccc3n(Cc3ccc(Oc4ccccc4)cc3)c2=O)C1 (stereo not shown) | Rec1 | item: BID | – | concentration not given | relative to: untreated | log2 fold change | -0.279
CCC(=CCc1c(O)cc2c(c1O)C(=O)CC(c1ccc(O)cc1)O2)CC (stereo not shown) | HeLa | annexin V/PI | – | 48 µM, 48 h | – | late apoptotic cells | 87%
Cc1cc(Cl)cc(-c2ccnc3cc(CN4C(=O)C5C(C4=O)C5(C)C)sc23)c1C[C@@H]1CNCCO1 (stereo partly shown) | CHP-212 resistant | PI flow cytometry | – | 0.1 µM, 24 h | – | G2/M phase cells | 13.6%
Cc1c(C(=O)Nc2cccc(C(N)=O)c2)cnn1-c1ccccc1 | Genome polyprotein NS2B-NS3 protease | reporter gene | HeLa | – | – | EC50 | 29 µM
CC1(C)CC[C@@]2(CO)C(=C3C=C[C@@H]4[C@@]5(C)CC[C@H](O)[C@@](C)(CO)[C@@H]5CC[C@@]4(C)[C@]3(C)C[C@@H]2O)C1 | HepG2, SIRT1 siRNA | Western blot, item: PGC-1α | – | concentration not given, high dose, unit not given, added: ethanol | relative to: β-actin | protein level | 0.746 and 1.11 and 0.926
CN1CCCNC(=O)c2cccc(c2)C(=O)NCCCN(C)CCCNc2cccc3c2C(=O)c2cccc(c2C3=O)NCCC1 | SAS | RNA-Seq, item: NOL8 mRNA | – | 1 µM, 6 h | relative to: untreated cells | log2 fold change | -0.992
COC(=O)[C@H](C)NC(=O)[C@H](C)NC(=O)c1csc(-c2cccnc2)n1 | NCI-H358 | cell viability | – | – | – | EC50 | > 30 µM
COC(=O)c1cc(NC2=NC(=O)C(=Cc3ccc(C)cc3)S2)ccc1OC(C)=O | MCF7 | GC-MS, item: Butanedioic acid | – | 1 µM | relative to: DMSO | metabolite level | 0.23 fold change
CCOc1cncc(-c2ccc(NC(=O)C3(c4ccnc(NS(=O)(=O)C5CC5)n4)CCOCC3)nc2)n1 | MOLM-1 | cell proliferation, CellTiter-Glo | – | 72 h, myeloid haematological cancer | – | IC50 | 0.057 µM
CC(C)(C)c1cc(-c2ccc3cc4ccccc4nc3n2)nc(-c2ccc3cc4ccccc4nc3n2)c1.[Cl-].[Cl-].[Ru+2].c1ccc2cc3nc4c5cccnc5c5ncccc5c4nc3cc2c1 | B16-F10 | – | – | visible light 100 J/cm2 | relative to: dark EC50 over light EC50 | phototherapeutic index | 26

SMILES | tested on | assay | system | conditions | how to read | quantity | result
NC(=O)c1ccccc1NC(=O)c1cc(-c2ccccc2)n(-c2ccccc2)n1 | Genome polyprotein NS2B-NS3 protease | reporter gene | HeLa | – | – | EC50 | 28 µM
O=C(C[Se]C(=O)c1ccc2ccccc2n1)Nc1cccc(C(F)(F)F)c1 | NCI60 breast subpanel | NCI60 five-dose screen | – | – | – | GI50 | 2.06 µM
CCN(C(=O)c1cc(F)ccc1Oc1nncnc1N1CCC2(C1)CN([C@H](CCCN(C)CCOC)C(C)C)C2)C(C)C | 5637 | cell growth | – | 168 h | – | GI50 | > 10 µM
CCNc1cc2c(cc1C)C1(c3cc(C)c(NCC)cc3O2)c2ccccc2C(=O)N1N=Cc1c[c-]c(-c2ccccn2)cc1.Cc1c(C)c(-c2ccc(-c3ccccc3)cc2)[c-](C)c1C.[Cl-].[Ir+3] | A549 | annexin V/PI flow cytometry | – | 3.0×IC50, 24 h | – | early apoptotic cells | 11 ± 0.13%
Cn1ncc2cc(-c3cncc(Cl)c3N3CCC4(CCNC4=O)CC3)ccc21 | LS174T | microarray, item: CXCL8 | – | concentration not given, 4 h, gene set IL-8 | relative to: untreated cells | fold change in expression | -4.69
CCN(CC)CC(=O)Nc1cccc(-n2cc(-c3ccc4ccc(-c5cn(-c6cccc(NC(=O)CN(CC)CC)c6)nn5)cc4c3)nn2)c1 | RCC4 | PCR angiogenesis array, item: ANPEP | – | 5 x IC50, 2 h, normoxia | relative to: untreated | fold regulation | -1.57
O=C(C[Se]C(=O)c1cccnc1Nc1cccc(C(F)(F)F)c1)Nc1cccc(C(F)(F)F)c1 | NCI60 breast subpanel | cell growth | – | 10 µM, 48 h, one-dose | – | mean growth percent | -61.9%
Cc1ccncc1.[Cl-].[Cl-].[Ru+2].c1cc(-c2ccc3cccnc3n2)nc(-c2ccc3cccnc3n2)c1.c1ccc2cc3nc4c5cccnc5c5ncccc5c4nc3cc2c1 | B16-F10 | cell viability | – | light 633 nm, 100 J/cm2 | – | EC50 | 2.12 ± 0.08 µM
COc1ccccc1-c1ccncc1C(=O)Nc1nnc(OCc2ccc(Cl)cc2)s1 | MDA-MB-231 | – | – | 3 µM, single replicate | – | colony count | 23 and 32 and 35 and 21
Cn1ncc(-c2ccc3c(=O)[nH]nc(CN)c3c2)c1-c1c(F)c(Cl)cc(OC2CC2)c1C#N | NCI-H2170 | cell viability, inhibitor, CellTiter-Glo | – | 120 h, baseline-subtracted | – | IC50 | 0.06 µM
Cc1nc(Nc2ncc(C(=O)Nc3c(C)cccc3Cl)s2)cc(N2CCN(C(=O)CN)CC2)n1 | KU812 | flow cytometry | – | concentration not given, 6 h | – | early apoptotic cells | 16.7% and 18% and 18.6%
NC(=O)c1ccc(-c2ccccc2Cl)c2c3c([nH]c12)CC[C@H](N)C3 | MX1 | cell growth or viability | – | – | – | IC50 | 0.0171 µM
CO[C@@H]1[C@@H](OC(N)=O)[C@@H](O)[C@H](Oc2ccc3c(O)c(NC(=O)c4ccc(O)c(CC=C(C)C)c4)c(=O)oc3c2C)OC1(C)C | DLD-1 BRCA2-/- | – | – | 300 µM, replicate B | relative to: untreated | colony survival | 0.312%
CC(=O)NCC(=O)N[C@@H](Cc1ccccc1)C(=O)N[C@@H](Cc1ccccc1)C(=O)N[C@@H](Cc1ccc(O)cc1)C(=O)NCC(=O)N[C@@H](Cc1ccc(O)cc1)C(=O)NCC(=O)N[C@@H](CO)C(=O)N[C@@H](CO)C(=O)N[C@@H](CO)C(=O)N[C@@H](CCCNC(=N)N)C(=O)N[C@@H](CCCNC(=N)N)C(=O)N[C@@H](C)C(=O)N1CCC[C@H]1C(=O)N[C@@H](CCC(N)=O)C(=O)N[C@H](C(=O)O)[C@@H](C)O | mouse dermal papilla cells | western blot | – | 100 nM | – | AKT phosphorylation | increased
CSCC[C@H](N)C(=O)N[C@@H](C)C(=O)N[C@@H](CCCNC(=N)N)C(=O)N[C@@H](CCCNC(=N)N)C(=O)N[C@@H](CC(=O)O)C(=O)N[C@@H](CCCCN)C(=O)N[C@H](C(=O)N[C@@H](CC(=O)O)C(=O)N[C@@H](Cc1ccccc1)C(=O)N[C@@H](C)C(=O)N[C@@H](CCCNC(=N)N)C(=O)N[C@@H](CCCNC(=N)N)C(=O)N[C@@H](CCCNC(=N)N)C(=O)N[C@@H](CCCNC(=N)N)C(=O)NCCCCCC(=O)NCCCCC(NC(=O)CCCCCNC(=O)[C@H](CCCNC(=N)N)NC(=O)[C@H](CCCNC(=N)N)NC(=O)[C@H](CCCNC(=N)N)NC(=O)[C@H](CCCNC(=N)N)NC(=O)[C@H](C)NC(=O)[C@H](Cc1ccccc1)NC(=O)[C@H](CC(=O)O)NC(=O)[C@@H](NC(=O)[C@H](CCCCN)NC(=O)[C@H](CC(=O)O)NC(=O)[C@H](CCCNC(=N)N)NC(=O)[C@H](CCCNC(=N)N)NC(=O)[C@H](C)NC(=O)[C@@H](N)CCSC)[C@@H](C)O)C(=O)NCCCCC(NC(=O)C(CCCCNC(=O)CCCCCNC(=O)[C@H](CCCNC(=N)N)NC(=O)[C@H](CCCNC(=N)N)NC(=O)[C@H](CCCNC(=N)N)NC(=O)[C@H](CCCNC(=N)N)NC(=O)[C@H](C)NC(=O)[C@H](Cc1ccccc1)NC(=O)[C@H](CC(=O)O)NC(=O)[C@@H](NC(=O)[C@H](CCCCN)NC(=O)[C@H](CC(=O)O)NC(=O)[C@H](CCCNC(=N)N)NC(=O)[C@H](CCCNC(=N)N)NC(=O)[C@H](C)NC(=O)[C@@H](N)CCSC)[C@@H](C)O)NC(=O)CCCCCNC(=O)[C@H](CCCNC(=N)N)NC(=O)[C@H](CCCNC(=N)N)NC(=O)[C@H](CCCNC(=N)N)NC(=O)[C@H](CCCNC(=N)N)NC(=O)[C@H](C)NC(=O)[C@H](Cc1ccccc1)NC(=O)[C@H](CC(=O)O)NC(=O)[C@@H](NC(=O)[C@H](CCCCN)NC(=O)[C@H](CC(=O)O)NC(=O)[C@H](CCCNC(=N)N)NC(=O)[C@H](CCCNC(=N)N)NC(=O)[C@H](C)NC(=O)[C@@H](N)CCSC)[C@@H](C)O)C(N)=O)[C@@H](C)O (stereo partly shown) | mouse C57BL/6 BMMs | – | – | 0.3 µM, 3 days, added: RANKL | relative to: untreated control | osteoclast formation | 34%
O=c1c(-c2ccc(Cl)c(CN3CCOCC3)c2)coc2cc(O)ccc12 | VCaP | RNA-seq | – | 1 µM, added: DHEA 200 nM | – | share of DHEA-affected genes regulated | 87%
CCCCCCCCCCCCCCCC(=O)OCC(CSC[C@H](N)C(=O)N[C@@H](CO)C(=O)N[C@@H](CCCCN)C(=O)N[C@@H](CCCCN)C(=O)N[C@@H](CCCCN)C(=O)N[C@@H](CCCCN)C(=O)NCCCCCC(=O)N[C@@H](CCCCN)C(=O)N[C@@H](CC(C)C)C(=O)N[C@H](C(=O)N[C@@H](Cc1ccccc1)C(=O)N[C@@H](Cc1ccccc1)C(=O)N[C@@H](Cc1ccc2ccccc2c1)C(=O)O)C(C)C)OC(=O)CCCCCCCCCCCCCCC (stereo partly shown) | BV-2 | RNA-seq, item: Tnf | – | concentration not given | – | mRNA level | 321 FPKM and 336 FPKM

Some of these lines once more:
SMILES | tested on | assay | system | conditions | how to read | quantity | result
Cn1ncc(-c2ccc3c(=O)[nH]nc(CN)c3c2)c1-c1c(F)c(Cl)cc(OC2CC2)c1C#N | NCI-H2170 | cell viability, inhibitor, CellTiter-Glo | – | 120 h, baseline-subtracted | – | IC50 | 0.06 µM
Cc1ccncc1.[Cl-].[Cl-].[Ru+2].c1cc(-c2ccc3cccnc3n2)nc(-c2ccc3cccnc3n2)c1.c1ccc2cc3nc4c5cccnc5c5ncccc5c4nc3cc2c1 | B16-F10 | cell viability | – | light 633 nm, 100 J/cm2 | – | EC50 | 2.12 ± 0.08 µM
CCN(CC)CC(=O)Nc1cccc(-n2cc(-c3ccc4ccc(-c5cn(-c6cccc(NC(=O)CN(CC)CC)c6)nn5)cc4c3)nn2)c1 | RCC4 | PCR angiogenesis array, item: ANPEP | – | 5 x IC50, 2 h, normoxia | relative to: untreated | fold regulation | -1.57
CC(C)(C)c1cc(-c2ccc3cccnc3n2)nc(-c2ccc3cccnc3n2)c1.[Cl-].[Cl-].[Ru+2].c1ccc2cc3nc4c5cccnc5c5ncccc5c4nc3cc2c1 | B16-F10 | cytotoxicity, resazurin | – | dark | – | EC50 | 20.8 µM
[BH3-][P+]1(c2ccccc2)CCCCC1 | SW-620 | MTT | – | 72 h | relative to: IC50 HaCaT over IC50 SW-620 | selectivity index | 13.1
